Measured values of several laboratories.
Each line is one published result; not all experiments were run side by side.
Organism: Bacillus subtilis

SMILES | test | system | setting | MIC
CC(C)C[C@@H]1NC(=O)[C@H](CCN)NC(=O)CSC[C@@H]2NC(=O)[C@H](CC(C)C)NC(=O)[C@H](CC(C)C)NC(=O)[C@H](CCN)NC(=O)[C@H](CCCCNC(=O)[C@H](CCN)NC1=O)NC(=O)[C@H](CCN)NC(=O)[C@H](CC(C)C)NC(=O)[C@H](CCN)NC(=O)CSC[C@@H](C(=O)N[C@@H](CCN)C(N)=O)NC(=O)[C@H](CC(C)C)NC(=O)[C@H](CC(C)C)NC(=O)[C@H](CC(C)C)NC2=O |  | BR 151 | 18 h | 4 µg/mL
CN1C(=O)[C@@H]2NC(=O)[C@@H]3NC(=O)[C@@H](c4ccc(O)cc4)NC(=O)[C@H](NC(=O)C(NCc4cccc(-c5ccc(F)cc5)c4)c4ccc(O)cc4)Cc4c[nH]c5cc(ccc45)-c4cc3cc(c4O)Oc3ccc(cc3)C[C@H]1C(=O)N[C@@H](C(=O)O)c1ccc(O)c(c1)Oc1ccc2cc1 (some centres unmarked) |  | 168, Mueller-Hinton broth |  | > 128 µg/mL
CCCCCCSCC1OC(OC2C(N)CC(N)C(OC3OC(CN)C(O)CC3N)C2O)C(O)C(N)C1O (centres unmarked) |  | 168 AAC(6')/APH(2'') plasmid |  | > 150 µg/mL
CC[C@H](C)[C@H](NC(=O)[C@H](CCCCN)NC(=O)[C@@H]1CCCN1C(=O)[C@@H](NC(=O)[C@H](CC(C)C)NC(=O)[C@H](CCCCN)NC(=O)[C@H](CC(C)C)NC(=O)[C@@H](NC(=O)[C@H](CO)NC(=O)CNC(=O)[C@H](Cc1ccccc1)NC(=O)[C@@H](N)Cc1ccccc1)C(C)C)[C@@H](C)CC)C(=O)N[C@@H](CC(C)C)C(N)=O | broth microdilution |  |  | 6.25 µM
CC(C)C[C@@H]1NC(=O)[C@H](CC(C)C)NC(=O)[C@H](CCCCN)NC(=O)CSC[C@@H]2NC(=O)[C@H](CC(C)C)NC(=O)[C@H](CC(C)C)NC(=O)[C@H](CCCCN)NC(=O)[C@H](CCCCNC1=O)NC(=O)[C@H](CC(C)C)NC(=O)[C@H](CC(C)C)NC(=O)[C@H](CCCCN)NC(=O)CSC[C@@H](C(=O)N[C@@H](CCCCN)C(N)=O)NC(=O)[C@H](CCCCN)NC(=O)[C@H](CC(C)C)NC(=O)[C@H](CCCCN)NC2=O |  | BR 151 | 18 h | 32 µg/mL
CC[C@H](C)[C@H](NC(=O)[C@H](CCCN)NC(=O)[C@H](CC(N)=O)NC(=O)[C@H](Cc1c[nH]c2ccccc12)NC(=O)[C@H](Cc1ccccc1)NC(=O)[C@H](CCCN)NC(=O)[C@H](CCCNC(=N)N)NC(=O)[C@H](CC(C)C)NC(=O)[C@H](Cc1c[nH]c2ccccc12)NC(=O)[C@H](CCCN)NC(=O)[C@H](CCCNC(=N)N)NC(=O)[C@H](CC(C)C)NC(=O)CNC(C)=O)C(=O)N[C@@H](CCCN)C(=O)N[C@@H](CCCNC(=N)N)C(N)=O | broth microdilution | ATCC 6633 |  | 3.12 µM
CN[C@@H]1[C@H](O)[C@H](NC)[C@H]2O[C@]3(O)[C@H](O[C@@H]2[C@H]1O)O[C@H](C)C[C@]3(O)CNCc1ccc(OC(F)(F)F)cc1 |  | ATCC 23857 |  | 100 to 200 µg/mL
CC(C)C[C@@H]1NC(=O)[C@H](CCCCN)NC(=O)CSC[C@@H](C(=O)N[C@@H](CCCCN)C(N)=O)NC(=O)[C@H](CC(C)C)NC(=O)[C@H](CC(C)C)NC(=O)[C@H](CC(C)C)NC(=O)[C@@H]2CSCC(=O)N[C@@H](CCCCN)C(=O)N[C@@H](CC(C)C)C(=O)N[C@@H](CCCCN)C(=O)N[C@@H](CCCCNC(=O)[C@H](CCCCN)NC1=O)C(=O)N[C@@H](CCCCN)C(=O)N[C@@H](CC(C)C)C(=O)N[C@@H](CC(C)C)C(=O)N2 |  | BR 151 | 18 h | 1 µg/mL
c1ccc(CCNC2CCCc3c2[nH]c2ccc(C4CCCCC4)cc32)cc1 (centres unmarked) | microbial growth, broth dilution |  |  | 2 µg/mL
CC[C@@H](C)[C@H](NC(=O)[C@H](C)NC(=O)[C@H](CCCCN)NC(=O)[C@H](CC(C)C)NC(=O)[C@H](C)NC(=O)[C@@H](NC(=O)[C@H](Cc1c[nH]cn1)NC(=O)[C@H](CC(C)C)NC(=O)[C@@H](NC(=O)[C@@H](NC(=O)[C@H](CCCCN)NC(=O)[C@H](CCCCN)NC(=O)[C@H](C)NC(=O)[C@H](CO)NC(=O)[C@H](CCCCN)NC(=O)[C@H](Cc1ccccc1)NC(=O)[C@@H](NC(=O)[C@H](CCCCN)NC(=O)[C@H](CC(C)C)NC(=O)[C@H](Cc1ccccc1)NC(=O)[C@H](CO)NC(=O)[C@H](CCCCN)NC(=O)[C@H](Cc1c[nH]c2ccccc12)NC(=O)[C@H](CCCCN)NC(C)=O)[C@@H](C)O)[C@@H](C)O)C(C)C)[C@@H](C)O)C(=O)N[C@@H](CO)C(=O)N[C@@H](CO)C(N)=O | broth dilution | ATCC 49619, Mueller-Hinton broth | 24 h, 37 °C | 4 µg/mL
CN1C(=O)[C@@H]2NC(=O)[C@@H]3NC(=O)[C@@H](c4ccc(O)cc4)NC(=O)[C@H](NC(=O)C(NCc4ccc(B(O)O)cc4)c4ccc(O)cc4)Cc4c[nH]c5cc(ccc45)-c4cc3cc(c4O)Oc3ccc(cc3)C[C@H]1C(=O)N[C@@H](C(=O)O)c1ccc(O)c(c1)Oc1ccc2cc1 (some centres unmarked) |  | 168, Mueller-Hinton broth |  | 1 µg/mL
CC[C@H](C)[C@H](N)C1=N[C@H](C(=O)N[C@@H](CC(C)C)C(=O)N[C@H](CCC(=O)O)C(=O)N[C@H](C(=O)N[C@H]2CCCCNC(=O)[C@H](CC(N)=O)NC(=O)[C@@H](CC(=O)O)NC(=O)[C@H](Cc3c[nH]cn3)NC(=O)[C@@H](CC(C)C)NC(=O)[C@H]([C@@H](C)CC)NC(=O)[C@@H](CCCN)NC2=O)[C@@H](C)CC)CS1 |  | 168 | 18 h, 37 °C, added: ZnSO4 0.3 mM | 64 µg/mL
CN1C(=O)[C@@H]2NC(=O)[C@@H]3NC(=O)[C@@H](c4ccc(O)cc4)NC(=O)[C@H](NC(=O)C(NCc4cc(O)cc(O)c4)c4ccc(O)cc4)Cc4c[nH]c5cc(ccc45)-c4cc3cc(c4O)Oc3ccc(cc3)C[C@H]1C(=O)N[C@@H](C(=O)O)c1ccc(O)c(c1)Oc1ccc2cc1 (some centres unmarked) |  | 168, Mueller-Hinton broth |  | 1 µg/mL
CC[C@H](C)[C@H](NC(=O)[C@H](NC(=O)[C@@H](CCCNC(=N)N)NC(=O)[C@@H](N)COC(=O)[C@@H](NC(=O)[C@@H](Cc1ccccc1)NC)[C@@H](C)CC)[C@@H](C)CC)C(=O)N[C@@H](CO)C(=O)N[C@H]1C(=O)N[C@@H](C)C(=O)N[C@@H](CC(C)C)C(=O)N[C@@H]([C@@H](C)CC)C(=O)O[C@H]1C | broth microdilution | ATCC 6051, Mueller-Hinton broth | 16 h, 37 °C | 0.0078 to 0.0156 µg/mL

Repeated from above:
SMILES | test | system | setting | MIC
CN[C@@H]1[C@H](O)[C@H](NC)[C@H]2O[C@]3(O)[C@H](O[C@@H]2[C@H]1O)O[C@H](C)C[C@]3(O)CNCc1ccc(OC(F)(F)F)cc1 |  | ATCC 23857 |  | 100 to 200 µg/mL
CC[C@@H](C)[C@H](NC(=O)[C@H](C)NC(=O)[C@H](CCCCN)NC(=O)[C@H](CC(C)C)NC(=O)[C@H](C)NC(=O)[C@@H](NC(=O)[C@H](Cc1c[nH]cn1)NC(=O)[C@H](CC(C)C)NC(=O)[C@@H](NC(=O)[C@@H](NC(=O)[C@H](CCCCN)NC(=O)[C@H](CCCCN)NC(=O)[C@H](C)NC(=O)[C@H](CO)NC(=O)[C@H](CCCCN)NC(=O)[C@H](Cc1ccccc1)NC(=O)[C@@H](NC(=O)[C@H](CCCCN)NC(=O)[C@H](CC(C)C)NC(=O)[C@H](Cc1ccccc1)NC(=O)[C@H](CO)NC(=O)[C@H](CCCCN)NC(=O)[C@H](Cc1c[nH]c2ccccc12)NC(=O)[C@H](CCCCN)NC(C)=O)[C@@H](C)O)[C@@H](C)O)C(C)C)[C@@H](C)O)C(=O)N[C@@H](CO)C(=O)N[C@@H](CO)C(N)=O | broth dilution | ATCC 49619, Mueller-Hinton broth | 24 h, 37 °C | 4 µg/mL
